Results gathered from unrelated publications.
Lines come from different studies, so protocols differ. ± gives the spread as reported.
HSP90AA1 C-terminal domain: Heat shock protein HSP 90-alpha, C-terminal domain (HSP90AA1, Homo sapiens, UniProt P07900)
HSP90AA1: Heat shock protein HSP 90-alpha (HSP90AA1, Homo sapiens, UniProt P07900)

SMILES	target	assay	setting	endpoint	result
CCC(C)n1c(C(=O)Nc2cnc(C(=O)NC)n(CC(C)C)c2=O)ncc(NC(=O)c2ncc(NC(=O)c3ccccc3)c(=O)n2Cc2ccc(OC)cc2)c1=O (centres unmarked)	HSP90AA1 C-terminal domain	binding, microscale thermophoresis	C-terminal domain	Kd	3.42 ± 1 µM
COC(=O)c1c(O)cc(O)c(Cl)c1CCc1ccccc1Cc1ccc(Cl)cc1	HSP90AA1	ligand displacement, FP		Kd	> 100 µM
N=C(N)NCCC[C@H](NC(=O)CNC(=O)[C@H](CCCNC(=N)N)NC(=O)CNC(=O)[C@H](CCCNC(=N)N)NC(=O)CNC(=O)[C@H](CCCNC(=N)N)NC(=O)CNC(=O)[C@H](CCCNC(=N)N)NC(=O)CNC(=O)[C@H](CCCNC(=N)N)NC(=O)CNC(=O)[C@H](CCCNC(=N)N)NC(=O)CNC(=O)[C@H](CCCNC(=N)N)NC(=O)CNC(=O)[C@H](CCCNC(=N)N)NC(=O)CNC(=O)[C@H](CCCNC(=N)N)NC(=O)CNC(=O)[C@H](CCCNC(=N)N)NC(=O)CNC(=O)[C@H](CCCNC(=N)N)NC(=O)CNC(=O)[C@H](CCCNC(=N)N)NC(=O)CNC(=O)[C@H](CCCNC(=N)N)NC(=O)CNC(=O)[C@H](CCCNC(=N)N)NC(=O)CNC(=O)[C@H](CCCNC(=N)N)NC(=O)CNC(=O)[C@H](CCCNC(=N)N)NC(=O)CNC(=O)[C@H](CCCNC(=N)N)NC(=O)CNC(=O)[C@H](CCCNC(=N)N)NC(=O)CNC(=O)[C@H](CCCNC(=N)N)NC(=O)CN)C(=O)O	HSP90AA1	binding, BLI	pH 7.5	Kd	0.00897 µM
Brc1ccc(Nc2nc(NN=Cc3c[nH]c4ccccc34)nc(N3CCOCC3)n2)cc1	HSP90AA1	binding, SPR		Kd	0.219 µM
COc1cc(S(=O)(=O)Nc2ccc(Nc3ccnc(N4CCCC4)n3)cc2)c(C)cc1C	HSP90AA1	ATPase activity, inhibitor		IC50	> 100 µM
CCOc1ccccc1Cc1ccccc1CCc1c(Cl)c(O)cc(O)c1C(=O)OC	HSP90AA1	ligand displacement, FP		Kd	> 100 µM
COc1cc(/C=C/C(=O)NCCCCCCNC2=C3C[C@@H](C)C[C@H](OC)[C@H](O)[C@@H](C)/C=C(\C)[C@H](OC(N)=O)[C@@H](OC)/C=C\C=C(/C)C(=O)NC(=CC2=O)C3=O)ccc1O	HSP90AA1	ligand displacement, FP		IC50	0.41 µM
CCC(C)n1c(C(=O)Nc2cnc(C(=O)NC)n(CC(C)C)c2=O)ncc(NC(=O)c2ncc(NC(=O)c3ccccc3)c(=O)n2Cc2ccc(O)cc2)c1=O (centres unmarked)	HSP90AA1 C-terminal domain	binding, microscale thermophoresis	C-terminal domain	Kd	286 µM
CC(C)c1cc(-n2nnc(C(=O)Nc3c(F)ccc(NS(=O)(=O)N4CCCC4)c3F)c2-c2ccncc2)c(O)cc1O	HSP90AA1	ligand displacement, FP		IC50	0.5 µM
Cc1cc(C)c(S(=O)(=O)N(CC(=O)O)c2ccc(Nc3ccnc(N4CCCC4)n3)cc2)c(C)c1	HSP90AA1 (Homo sapiens, UniProt P07900, Q133A)	binding, biolayer interferometry	mutant Q133A	Kd	5.18 µM
O=C1c2ccc(O)cc2-c2c(-c3ccc(O)cc3)oc3cc(O)cc1c23	HSP90AA1 C-terminal domain	binding, fluorescence polarization	C-terminal domain fragment	Kd	8.01 µM

Repeated from above:
SMILES	target	assay	setting	endpoint	result
CCC(C)n1c(C(=O)Nc2cnc(C(=O)NC)n(CC(C)C)c2=O)ncc(NC(=O)c2ncc(NC(=O)c3ccccc3)c(=O)n2Cc2ccc(O)cc2)c1=O (centres unmarked)	HSP90AA1 C-terminal domain	binding, microscale thermophoresis	C-terminal domain	Kd	286 µM
